Experimental data from different studies.
A part holds a random share of what one study measured. Substitutions count along the parent as printed.

Sample 1 — method: aptamer microarray, sandwich; form: DNA with 2'F-ANA; matrix: in vitro; concentration: 200 nM; added: Cy3 exosite-II aptamer, 400 nM; direction: higher = stronger binding; strand: GGTTGGTGTGGTTGG
Target: Prothrombin, mature alpha-thrombin (F2, Homo sapiens, UniProt P00734)
Setting: whole 15-mer aptamer, many near background
Modification | mean fluorescence intensity [a.u.]
2'F-ANA at 1 3 4 6 8 10 12 13 14 15 | 84
2'F-ANA at 1 4 6 7 10 11 13 14 | 47.6
2'F-ANA at 1 4 5 6 7 9 12 14 | 46.3
2'F-ANA at 3 4 6 7 8 15 | 707
2'F-ANA at 1 4 5 6 7 12 13 15 | 77.2
2'F-ANA at 2 4 5 7 8 13 15 | 60.9
2'F-ANA at 1 2 3 5 6 15 | 80.8
2'F-ANA at 2 4 5 6 8 12 14 15 | 50.5
2'F-ANA at 1 2 3 8 9 13 14 | 68.8
2'F-ANA at 2 3 10 11 13 15 | 350
2'F-ANA at 1 4 5 7 10 12 15 | 46.8
2'F-ANA at 1 2 8 9 10 11 14 | 47.4
2'F-ANA at 3 5 6 8 10 13 15 | 61.3
2'F-ANA at 1 2 5 6 9 | 74.3
2'F-ANA at 2 3 5 6 8 10 12 15 | 57.8
2'F-ANA at 1 2 3 4 5 6 8 9 10 13 14 | 48.4
2'F-ANA at 1 2 3 6 11 12 13 | 291
2'F-ANA at 3 4 5 9 11 12 | 166
2'F-ANA at 2 4 6 7 10 13 | 68.1
2'F-ANA at 1 3 6 9 10 11 12 | 123
2'F-ANA at 1 5 7 10 15 | 43.5
2'F-ANA at 1 5 6 7 8 9 11 12 15 | 111
2'F-ANA at 1 3 4 5 7 12 13 15 | 78.2
2'F-ANA at 3 4 7 8 11 13 15 | 579

Sample 2 — method: protein binding microarray; form: double-stranded DNA, one strand shown; matrix: in vitro; concentration: not given; reference: not given; direction: higher = stronger binding
Target: Histone acetyltransferase KAT6A, winged helix 1, GST fusion (KAT6A, Homo sapiens, UniProt Q92794, residues 1-85)
Setting: 8-mer, flanks averaged, mean of 2 arrays, mostly near background
Construct (chain): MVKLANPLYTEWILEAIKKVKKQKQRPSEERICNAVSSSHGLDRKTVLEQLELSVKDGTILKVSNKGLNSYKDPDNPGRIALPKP
Strand | E-score
CACAACTC | -0.193
CTACGGCA | 0.381
CACCTCAA | -0.228
ATGTCTCC | 0.0765
AGATTAAC | 0.0127
AGGCAGGC | 0.0239
CCCATGCA | -0.229
GTCCCCCA | -0.147
CCAGATTC | -0.202
AGAATTAT | 0.0166
TAAAGCGA | 0.0382
CGGCTGCA | 0.237
CATTGTAA | -0.0777
GACCCCTA | -0.21
AATAAATT | -0.231
CGATTCGA | -0.13
GTGAAGGA | -0.021

Sample 3 — target: UBE2H UBC core domain (UniProt P62256); method: yeast two-hybrid; matrix: yeast; setting: mostly zero background; reference: not given; direction: higher = stronger interaction
UniProt P62256, sequence (whole entry, looked up): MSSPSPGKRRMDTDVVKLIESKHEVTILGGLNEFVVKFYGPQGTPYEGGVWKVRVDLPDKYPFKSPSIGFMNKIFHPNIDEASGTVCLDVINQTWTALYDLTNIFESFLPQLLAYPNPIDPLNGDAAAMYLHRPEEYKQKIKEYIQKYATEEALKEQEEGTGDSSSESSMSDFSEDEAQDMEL
B1: RNF19A RING domain (UniProt Q9NV58); chain ISKQIGDFIECPLCLLRHSKDRFPDIMTCHHRSCVDCLRQYLRIEISESRVNISCPECTERFNPHDIR
B2: SH3RF1 RING domain (UniProt Q7Z6J0); chain DESALLDLLECPVCLERLDASAKVLPCQHTFCKRCLLGIVGSRNELRCPECRTLVGSGVEEL
B3: DTX2 RING domain (UniProt Q86UW9); chain EELKVPPDEDCIICMEKLSTASGYSDVTDSKAIGSLAVGHLTKCSHAFHLLCLLAMYCNGNKDGSLQCPSCKTIYGEKTGTQ
B4: ZMIZ2 RING domain (UniProt Q8NF64); chain GTIPGTPGPNGEDGVEQTAIKVSLKCPITFRRIQLPARGHDCRHIQCFDLESYLQLNCERGTWRCPVCNKTALLEGLEVDQYMLGILIYIQNSDYEEITIDPTCSWK
B5: DZIP3 RING domain (UniProt Q86Y13); chain PDEEEEEEEPCVICHENLSPENLSVLPCAHKFHAQCIRPWLMQQGTCPTCRLHVLLPEEFP
B6: MAP3K1 RING domain (UniProt Q13233); chain NSIKDEEEQMCPICLLGMLDEESLTVCEDGCRNKLHHHCMSIWAEECRRNREPLICPLCRSKWRSHDFYS
Molecule | lacZ reporter activity
NLSELTPYILCSICKGYLIDATTITECLHTFCKSCIVRHFYYSNRCPKCNIVVHQTQPLY (PCGF6 RING domain (UniProt Q9BYE7)) | 0
B1 (RNF19A RING domain) | 0
GSRLQEINDVCAICYHEFTTSARITPCNHYFHALCLRKWLYIQDTCPMCHQKVYIEDDIK (RNF139 RING domain (UniProt Q8WU17)) | 0
B2 (SH3RF1 RING domain) | 0
B3 (DTX2 RING domain) | 0
KETIKKTTKPCPRCHVPVEKNGGCMHMKCPQPQCRLEWCWNCGCEWNRVCMG (PRKN RING domain (UniProt O60260)) | 0
GSDDEEIPFKCFICRQSFQNPVVTKCRHYFCESCALQHFRTTPRCYVCDQQTNGVFNPA (RNF113A RING domain (UniProt O15541)) | 0
FDGDVDPDLKCALCHKVLEDPLTTPCGHVFCAGCVLPWVVQEGSCPARCRGRLSAKELN (PDZRN3 RING domain (UniProt Q9UPQ7)) | 0
B4 (ZMIZ2 RING domain) | 0
B5 (DZIP3 RING domain) | 0
B6 (MAP3K1 RING domain) | 0

Sample 4 — target: CCNA2, cyclin fold, Cln2 fusion (human); method: yeast growth competition, sequencing; matrix: yeast; setting: strong parent motif; reference: not given; direction: higher = stronger binding
Starting sequence: PKN2 docking peptide (human); VSAVQKLDFSDTM
Variant | normalised enrichment score
VSAVQKLRFSDTM [D8R] | 1.07
VLAVQKLDFSDTM [S2L] | 1.32
VSAVQKLDFSDEM [T12E] | 3.24
VAAVQKLDFSDTM [S2A] | 2.51
VPAVQKLDFSDTM [S2P] | 1
VSAVQKLDFSNTM [D11N] | 2.55
VSAEQKLDFSDTM [V4E] | -0.178
VSAVQKLDFSDDM [T12D] | 2.21
VSAVQKLDFSDTK [M13K] | 2.03
VSAIQKLDFSDTM [V4I] | 1.46
VSAVQKLDFSDTN [M13N] | 2.86
VSAVQKLDISDTM [F9I] | -0.0882
VSATQKLDFSDTM [V4T] | -0.497
SSAVQKLDFSDTM [V1S] | 2.07
VSAVQKLDFDDTM [S10D] | 1.51
VSAVQKLDFNDTM [S10N] | 1.4
VSAVQKLKFSDTM [D8K] | 1.6
VSAVQKLDFSDTW [M13W] | 2.28
VSAVQKLDFADTM [S10A] | 1.27
VSAVQKLDGSDTM [F9G] | -0.0244
VSAVQKLDFSDTP [M13P] | 1.92
KSAVQKLDFSDTM [V1K] | 3.34
VSAVQKLDFSDTY [M13Y] | 2.42
HSAVQKLDFSDTM [V1H] | 2.47
VWAVQKLDFSDTM [S2W] | 0.803

Sample 5 — method: competition protein-binding microarray; form: double-stranded DNA, one strand shown; matrix: in vitro; concentration: 2 µM; added: Cbf1 competitor, 0.05 µM; direction: higher = stronger binding; constant ends, left off below: … GTCTTGATTCGCTTGACGCTGCTG
Target: Phosphate system positive regulatory protein PHO4, full length, GST-tagged (PHO4, Saccharomyces cerevisiae, UniProt P07270, residues 1-312)
Setting: whole 60-bp probe, lowest competitor level
Target sequence (chain): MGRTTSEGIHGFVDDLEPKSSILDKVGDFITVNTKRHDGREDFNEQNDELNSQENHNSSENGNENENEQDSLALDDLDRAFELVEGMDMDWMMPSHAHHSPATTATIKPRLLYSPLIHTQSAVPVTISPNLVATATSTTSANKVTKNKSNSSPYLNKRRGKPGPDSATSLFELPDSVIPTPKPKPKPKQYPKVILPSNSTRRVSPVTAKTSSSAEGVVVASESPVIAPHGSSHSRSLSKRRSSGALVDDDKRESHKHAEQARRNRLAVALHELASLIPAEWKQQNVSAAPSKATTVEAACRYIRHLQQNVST
Strand | fluorescence intensity
ATACTTTCATCACATCAGGTGGTTTAGGTACGATGG | 5530 a.u.
AGCAAGTAATCTTTGCACGTGGCCGGACGTAGATGA | 17100 a.u.
CGGGGTTAAGTTTGGATCGTGGGTGGCTTGCAGCAG | 8240 a.u.
AAAGCGGTAATTTCTCACGTGTTTTCACATATCTAT | 13100 a.u.
ATTGGTGATATTGTTGACGTGCTTTACAAACGGAAT | 5910 a.u.
CACAGATGAGTCAGCTTCGTGATGGCCTGTTTCGGT | 4170 a.u.
TTTCGAGAGCATACCCACGGGTAGGAAAGAAAGAGG | 7890 a.u.
CGGACAATATCGGTACTCGTGAAACATTTCTTGCTG | 5470 a.u.
CGGGGTTAAGTTTGCGTGGTGGGTGGCTTGCAGCAG | 6380 a.u.
AAAAAACGAATGACTCACGTTATCAGGCTCATAGCT | 5950 a.u.
CTTTCCCGATCTTTTCACGTGGTTTTAGCACATTTG | 11800 a.u.
TGCGCAACAACTTGGAAGGTGGGTGTATGTCTAGAA | 4620 a.u.
CTTACCGTCAACTTTGACGTGACGGAGCATCAAGAT | 3670 a.u.
ACCTATGCTAAAATTCACGTGTAGGCATTTCAAAAT | 14600 a.u.

Sample 6 — method: universal PBM; form: double-stranded DNA, one strand shown; matrix: in vitro; concentration: not given; direction: higher = stronger binding
Target: Sal-like protein 4, full length isoform B (SALL4, Homo sapiens, UniProt Q9UJQ4-2, residues 1-616)
Setting: 8-mer, flanks averaged, mean of replicates
Strand | E-score
ACTCGCCT | -0.152
GACATGAA | 0.144
CTCAAAAC | 0.0643
AGACGTAT | 0.152
CCAAACCC | -0.0519
ACAACCCT | -0.143
AAAGACCT | -0.0261
AGGGAAAC | 0.00304
CAATCGTC | -0.0454
TGGATAAA | 0.27
CACACTGA | -0.109
CTTATAAA | 0.272
GAACAATA | 0.339
GAGTTGCA | -0.0623
CACTTGAA | 0.0737
CCCTGCAA | -0.058
CGTGCTAA | 0.022
TCTACGCA | 0.068
GGGGGGCA | -0.338
TAGAGGCA | 0.0296
ATTTATCG | 0.241
CTATGCCA | 0.113
ACGCCAGT | -0.287
AATGAGAT | 0.283
CGTGAGGC | -0.208

Excerpt of the above (sample 5):
Strand | fluorescence intensity
CGGGGTTAAGTTTGCGTGGTGGGTGGCTTGCAGCAG | 6380 a.u.
AAAGCGGTAATTTCTCACGTGTTTTCACATATCTAT | 13100 a.u.
AGCAAGTAATCTTTGCACGTGGCCGGACGTAGATGA | 17100 a.u.
TTTCGAGAGCATACCCACGGGTAGGAAAGAAAGAGG | 7890 a.u.
AAAAAACGAATGACTCACGTTATCAGGCTCATAGCT | 5950 a.u.
ATACTTTCATCACATCAGGTGGTTTAGGTACGATGG | 5530 a.u.
ATTGGTGATATTGTTGACGTGCTTTACAAACGGAAT | 5910 a.u.
CTTTCCCGATCTTTTCACGTGGTTTTAGCACATTTG | 11800 a.u.
CACAGATGAGTCAGCTTCGTGATGGCCTGTTTCGGT | 4170 a.u.
TGCGCAACAACTTGGAAGGTGGGTGTATGTCTAGAA | 4620 a.u.
CTTACCGTCAACTTTGACGTGACGGAGCATCAAGAT | 3670 a.u.
